Measured values from different studies.
Parts stem from different laboratories: compare values within a part only. Substitutions count along the parent as printed.

Sample 1 — technique: RNA Bind-n-Seq; form: RNA; sample: in vitro; concentration: 1 µM; notes: whole 134-nt RNA, ends assumed; added: 150 mM KCl; baseline: input library; reading: higher = stronger binding; quantity: log2 enrichment
Target: Ras GTPase-activating protein-binding protein 1, C-terminal RGG region (G3BP1, Homo sapiens, UniProt Q13283)
Chain of UniProt Q13283 (whole entry, looked up): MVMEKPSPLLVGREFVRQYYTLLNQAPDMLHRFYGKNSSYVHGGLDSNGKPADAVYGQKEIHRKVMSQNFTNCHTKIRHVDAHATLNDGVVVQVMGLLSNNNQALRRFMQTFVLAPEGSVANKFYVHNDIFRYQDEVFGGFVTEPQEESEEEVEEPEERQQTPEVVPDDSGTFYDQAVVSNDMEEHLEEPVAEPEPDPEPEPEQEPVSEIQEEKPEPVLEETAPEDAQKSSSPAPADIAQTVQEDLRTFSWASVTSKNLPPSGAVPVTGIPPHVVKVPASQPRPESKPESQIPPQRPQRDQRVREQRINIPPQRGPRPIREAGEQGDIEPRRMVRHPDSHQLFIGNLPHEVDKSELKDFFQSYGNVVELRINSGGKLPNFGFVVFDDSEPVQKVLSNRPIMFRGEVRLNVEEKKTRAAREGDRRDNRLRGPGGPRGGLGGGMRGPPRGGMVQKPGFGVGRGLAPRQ
Shared flanks, not repeated: GGGAGUUCUACAGUCCGACGAUC … UGGAAUUCUCGGGUGUCAAGG
Sequence = CAAGUCCUGUGCUACACAUCGUAUGUACCGAAUCGGUUUGGUUUUUUUGGAAAGGAAAGUAUUAUGUUACGCCGUUCGGAUCUGCACUUC; result = -1.62
Sequence = CUGUGCUACACAUCGUAUGUACCGAAUCGGGCCCCCCCGGCCCCCCCGGGCCCCCCCGGGGAAAGUAUUAUGUUACGCCGUUCGGAUCUG; result = -2.03
Sequence = UAACUUUAGAGGAGGAUCUGAUGGAUAUGGCAGUGGACGUGUAUUUGGGGAUGGCUAUAAUGGGUAUGGAGGAGGACCUGGAGGUGGCAA; result = -1.58
Sequence = CAAGUCCUGUGCUACACAUCGUAUGUACCGAAUCGGGAGGGUUUGGGAAAAAGGGAAAGUAUUAUGUUACGCCGUUCGGAUCUGCACUUC; result = 1.44
Sequence = GUCCUGUGCUACACAUCGUAUGUACCGAAUCGGGGUGGGGAAAGGGGAAAAAAAGGGGAAAGUAUUAUGUUACGCCGUUCGGAUCUGCAC; result = 0.834
Sequence = UAACUUUAGAGGAGGAUCUGAUGGAUAUGGCAGUGGACGUGGAUUUGGGGAUGGUUAUAAUGGGUAUGGAGGAGGACCUGGAGGUGGCAA; result = -0.853
Sequence = GCAGGAAGUAAAAACAAAUGGAAAUGCUUCGGAUAGUGGCAGGGGUGGGGGUUGAUAAGGAAAGGGUGGGAUGGGAGUGGGUAAAGAGUU; result = 1.06
Sequence = GCAGGAAGUAAAAACAAAUGGAAAUGCUUGGGAUAGUGGCAGGGGUGGGGGUUGCUAAGGAAAGGGUGGGAUGGGAGUGGGUAAAGAGUU; result = 1.83
Sequence = CACAGACAACACGCACCCACACAGACACAGAGGGAAGGGGUUGGGAUGGGGACAGGGUGCACAGCAGGGCGGGGUAGGACCCCAAACCCU; result = -0.289

Sample 2 — technique: universal PBM; form: double-stranded DNA, one strand shown; sample: in vitro; concentration: 600 nM; reading: higher = stronger binding; quantity: E-score
Target: Sal-like protein 4, full length isoform A (SALL4, Homo sapiens, UniProt Q9UJQ4, residues 1-1053)
Chain of UniProt Q9UJQ4 (whole entry, looked up): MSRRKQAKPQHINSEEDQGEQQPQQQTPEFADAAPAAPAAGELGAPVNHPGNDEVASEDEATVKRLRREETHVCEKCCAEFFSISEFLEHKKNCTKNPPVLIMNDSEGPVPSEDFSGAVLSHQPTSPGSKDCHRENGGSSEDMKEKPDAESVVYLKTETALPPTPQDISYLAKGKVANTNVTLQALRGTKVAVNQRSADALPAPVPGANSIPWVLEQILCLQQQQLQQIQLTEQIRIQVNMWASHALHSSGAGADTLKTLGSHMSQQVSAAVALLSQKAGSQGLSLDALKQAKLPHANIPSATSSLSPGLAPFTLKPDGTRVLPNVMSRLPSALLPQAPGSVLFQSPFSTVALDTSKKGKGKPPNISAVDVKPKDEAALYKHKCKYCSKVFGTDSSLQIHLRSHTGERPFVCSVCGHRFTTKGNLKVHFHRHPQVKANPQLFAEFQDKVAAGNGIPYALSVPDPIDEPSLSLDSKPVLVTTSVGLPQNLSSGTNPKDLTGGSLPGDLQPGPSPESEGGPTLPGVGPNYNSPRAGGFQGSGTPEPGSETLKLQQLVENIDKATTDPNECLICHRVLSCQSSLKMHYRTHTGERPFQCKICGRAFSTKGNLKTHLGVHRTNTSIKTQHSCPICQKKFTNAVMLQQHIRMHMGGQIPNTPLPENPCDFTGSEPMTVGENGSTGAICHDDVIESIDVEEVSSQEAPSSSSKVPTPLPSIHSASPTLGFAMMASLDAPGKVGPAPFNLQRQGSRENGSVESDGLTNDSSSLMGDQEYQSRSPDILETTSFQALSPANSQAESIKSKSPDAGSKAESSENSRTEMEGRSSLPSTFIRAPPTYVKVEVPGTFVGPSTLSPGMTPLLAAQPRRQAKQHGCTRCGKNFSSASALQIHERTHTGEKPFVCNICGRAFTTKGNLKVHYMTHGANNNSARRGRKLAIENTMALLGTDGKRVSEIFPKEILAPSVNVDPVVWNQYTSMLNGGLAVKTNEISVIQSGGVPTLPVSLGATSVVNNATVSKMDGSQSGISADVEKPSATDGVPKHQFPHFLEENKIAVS
Notes: 8-mer, flanks averaged, mean of replicates
Sequence = GAACACTA; result = 0.0723
Sequence = CACCAAGC; result = -0.21
Sequence = TCAATGAA; result = 0.181
Sequence = AGACGTTC; result = -0.004
Sequence = AGTTAAGG; result = -0.0237
Sequence = ATCACCAC; result = 0.0897
Sequence = AACTCGAC; result = -0.122
Sequence = GTACGTAA; result = 0.197
Sequence = GGCACAAA; result = 0.0008
Sequence = GAACAACC; result = 0.0635
Sequence = GGACTTGA; result = -0.12
Sequence = ACTTAGTC; result = -0.0278
Sequence = AACGATAG; result = 0.208

Sample 3 — target: CCNB2, cyclin fold, Cln2 fusion (human); technique: yeast growth competition, sequencing; sample: yeast; notes: strong parent motif; baseline: not given; reading: higher = stronger binding; quantity: normalised enrichment score
Starting sequence: BRCA2 docking peptide (human); PSIKRNLLNEFDR; partner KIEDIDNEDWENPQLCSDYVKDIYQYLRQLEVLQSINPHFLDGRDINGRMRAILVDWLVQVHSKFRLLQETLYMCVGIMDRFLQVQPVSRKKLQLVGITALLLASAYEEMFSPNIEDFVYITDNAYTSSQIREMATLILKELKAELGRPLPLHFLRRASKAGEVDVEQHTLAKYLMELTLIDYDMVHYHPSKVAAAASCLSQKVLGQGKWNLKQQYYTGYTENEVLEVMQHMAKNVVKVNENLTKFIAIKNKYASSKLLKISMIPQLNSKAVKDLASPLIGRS
Variant = P1L; result = 3.4
Variant = P1F; result = 2.97
Variant = F11W; result = 0.61
Variant = S2F; result = 2
Variant = K4I; result = 2.2
Variant = L7H; result = -0.082
Variant = N9C; result = 3.2
Variant = L8S; result = 1.75

Further values, each from its own experiment
Molecule = PhoQ, residues 284 288 289 292 302 303 SIHLQL; target = PhoP, residues 12 14 15 18 19 NHTVL (Escherichia coli, UniProt P23836); test = Sort-seq, refers to: YFP reporter; test system = E. coli; conditions = PhoQ-PhoP variant library, added: 10 µM Mg2+; scale = baseline: high Mg2+ state, higher = stronger signaling; quantity = fold induction; result = 5.38
